# Measurements pooled from the literature.
# Each numbered part is a random draw from the data of one study; scales do not carry over between parts. Positions count from the first letter of the parent shown.

# Block 1
# Target: RNA binding protein fox-1 homolog 2, RRM domain, GST-SBP tag (RBFOX2, Homo sapiens, UniProt O43251-10, residues 100-194)
# Method: RNA Bind-n-Seq
# Form: RNA
# Sample: in vitro
# Tested at: 365 nM
# Setting: natural RNA segment, single round, ends assumed
# Relative to: no-protein control
# Direction: higher = stronger binding
# Constant ends, left off below: GGGAGUUCUACAGUCCGACGAUC … UGGAAUUCUCGGGUGCCAA
# Target sequence (chain): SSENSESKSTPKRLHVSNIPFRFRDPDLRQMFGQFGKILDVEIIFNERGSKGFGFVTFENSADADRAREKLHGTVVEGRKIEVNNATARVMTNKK
Strand,RBNS enrichment (R)
UUUGUUCAUCUGGUCAUCGUGUCCAAAUUUCAGUCAUGUUUGUAGCAAGAUUUUGGAAGCAUUCAUAUUUCCUUUUUAAAAUGUAUUCCUUUGUGUUCAACAGUUAAUCA,0.487
UUCAAUGCCUACCGUCGGCCCACCUGAGCGGUCUUCACCUUUGCCAACUUUGACGGAUUUCUGUGUGGAGAGUUGAGAUUUCUAUUUCCUGUUUUGGUUUAACAGUUUCU,0.393
CACCAGCUGUGCCAUGUUCGAGACCUGGGCUGGCUCAAGCCGGCUGCCUUCACCGGGAGCCACGCCGUGCAUGGCAGCCUUCCCUGGACGAGCGCUCGGUGUUCACACUG,1.13
UACUAGUGAAGUAAGAAAUUUUGCUUGUUGUUUUGCAAACCAAAUAGUUUCCUCAAACACAAAUCAGUGUUCCCACGAACAAGUUCCAGUUGAGAAACACUAAGGUUAUG,0.301
GCUUCUUAUAAAUACCUCCAAAGUGCCACCUGUUUCAACAGAAACGCUCAGAUUGCUAGCUAGGCAAGCACUGGGCACUCCAGAGCCAGUGGCUCUGCCACCCUGCAGGC,0.376
UGUGACUUCCUGGGCAGCCAUUGAAUUCAUUUUCCAUGAGAAGAUGACAGAGUUAGCCUGUGGCUAUAGGAGAUCAUGUCAUCCAGACCUUUUUGCCCAUCACAUUAACU,0.22
GAUCAAAAUAAAUAGAGUGUAAAUUCUUUUUAAUGCUUUAGUGAUUAAAUGUUUUAGUAUUUUGAACUGAAAUGGACACACAAACACACACACGCACACACAGACCCACA,0.545
AGGUGGAGACUACAAGGAGACUGGGCGAACCACACCGUCUCCCUGCAUGGCCUUCCCUUCCUCUAGACAGAGGAGGGCUCCCAGCAGCCUUUCUAGUUUGGCAGUGCGAC,0.539
ACCAAGGGUACACGCAGGCAUGCACGGGUUUCCUGCCCAGCGACGGCUUAAGCCAGCCCCCGACUGGCCUGGCCACACUGCUCUCCAGUAGCACAGAUGUCUGCUCCUCC,0.413
CAGGAGGCCUCCUGACACCAGCCAAAAUCCUGACAGCAGGGUCUGCCCUCUUGAGUGUGGGGAGCCCCUAGUCCUUUAAGGUUGGCUGCUAAGGCCUGUGCUCCAAAGCA,1.07
UCCAUGGGCUGCUAGACUCUUGCGGGUAGAGUCUCCCCUGGACUUAGCAUUGUGAGAUGGACUCAGCUCAGGGCGCCCCUAAGGCUCGGAGGCGGCCUUCUGGGUCCCCA,0.675
GUAUUUUUGCAUGGUUCCUUGUAUUGCAUUUCUUUGCACAUAUUAUGGGCUUGUGACCCUAAACUUGCAGGCAAGGUUAGCUGCUUUAGUAAGUAGAAUUUUGUGGUCUU,3.82

# Block 2
# Target: Interferon regulatory factor 7, full length, phosphomimetic (IRF7, Homo sapiens, UniProt Q92985, residues 1-503, S471D/S472D/S475D/S476D/S477D/S483D/S484D/S487D)
# Method: protein-binding microarray
# Form: double-stranded DNA, one strand shown
# Sample: in vitro
# Tested at: 2200 nM top
# Setting: 60-bp whole probe
# Added: salmon DNA 0.4 mg/ml
# Relative to: random background probes
# Direction: higher = stronger binding
# Constant ends, left off below: GCCTAGCAC … GTCTTGATTCGCTTGACGCTGCTG
# Target sequence (chain): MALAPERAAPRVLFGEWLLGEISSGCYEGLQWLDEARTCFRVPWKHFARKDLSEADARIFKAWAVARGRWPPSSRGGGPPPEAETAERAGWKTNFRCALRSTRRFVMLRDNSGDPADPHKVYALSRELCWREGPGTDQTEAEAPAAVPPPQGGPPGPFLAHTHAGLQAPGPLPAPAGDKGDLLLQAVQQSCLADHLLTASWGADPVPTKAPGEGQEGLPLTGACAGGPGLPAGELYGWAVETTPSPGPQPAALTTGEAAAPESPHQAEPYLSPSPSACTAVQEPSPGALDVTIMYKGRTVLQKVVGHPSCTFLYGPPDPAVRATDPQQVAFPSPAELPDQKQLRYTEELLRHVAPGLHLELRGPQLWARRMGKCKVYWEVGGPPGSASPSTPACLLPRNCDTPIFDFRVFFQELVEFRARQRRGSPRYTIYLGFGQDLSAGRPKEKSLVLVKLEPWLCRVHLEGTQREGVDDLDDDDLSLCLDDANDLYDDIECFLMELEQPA
Strand,fitted relative affinity [z-score]
GAAGGTTTCGACACTGGGGACGTGCTA,1.86
GACGGTTTCGGTTTCGTGACGTGCTAG,13.5
ACACTACCTGACTTCAAACTGTGCTAG,1.18
TCATTTCTTTTTTTCTTACTGTGCTAG,3.52
TTAAGTTTCGACTATCGGTTAGTGCTA,4.63
AGCAGGGCTGATGCTCCCCTGTGCTAG,-1.22
CTAGTAGCCTAAGGCTACCGGTGCTAG,-0.335
TTAGGTATCGGTATCGGTTAGTGCTAG,1.09
TTAGAGCTGAGTTTCGATTAGTGCTAG,3.46
GACGGTCTCGGCCTCGGGACGTGCTAG,-0.592
GACGGTTTCGGGTATCGGGAAGTGCTA,6.08
GACGAACTCAGTCTCGAGACGTGCTAG,0.174
GACGATATCCGTTTCGAGACGTGCTAG,2.69
TCACACATCTCACTCTAACTGTGCTAG,1.45
GACGATTGCGGGTATCGAGACGTGCTA,0.333
TTAGGTATCGGGGATCGGTTAGTGCTA,-0.000576
TCAGTCTTCCCCATCTTACTGTGCTAG,2.1
GAATGTCTTCCCCTCTCATTGTGCTAG,1.41
TCATGTGTGCATCTATCACTGTGCTAG,0.643
TTAGTTATCCTTCTCCTTTAGTGCTAG,1.72
TTAGGTATCGTTCTCCTTTAGTGCTAG,1.83

# Block 3
# Target: ABI1, truncated, D143A, DHFR fusion (Arabidopsis thaliana)
# Method: DHFR PCA, deep sequencing
# Sample: yeast
# Setting: methotrexate growth selection, single substitutions
# Added: (+)-ABA 710 µM
# Relative to: wild-type fitted maximum
# Direction: higher = stronger binding
# Parent: PYL1, truncated, DHFR fusion (Arabidopsis thaliana); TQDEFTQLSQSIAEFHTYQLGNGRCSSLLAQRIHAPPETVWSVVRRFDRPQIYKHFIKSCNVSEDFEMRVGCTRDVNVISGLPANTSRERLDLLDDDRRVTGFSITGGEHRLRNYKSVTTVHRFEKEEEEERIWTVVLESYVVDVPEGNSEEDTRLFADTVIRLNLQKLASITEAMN; partner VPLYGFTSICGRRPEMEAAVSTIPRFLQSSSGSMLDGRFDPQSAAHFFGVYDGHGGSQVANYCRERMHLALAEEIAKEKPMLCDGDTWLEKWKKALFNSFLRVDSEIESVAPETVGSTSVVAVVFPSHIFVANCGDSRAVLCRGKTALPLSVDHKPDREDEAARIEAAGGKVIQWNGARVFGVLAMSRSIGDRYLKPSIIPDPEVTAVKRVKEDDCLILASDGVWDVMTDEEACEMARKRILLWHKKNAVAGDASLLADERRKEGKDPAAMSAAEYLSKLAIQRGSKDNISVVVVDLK
Change,relative binding score
S27E,83.4%
Y18N,96.9%
I12C,91.3%
E127V,110%
T17K,109%
S80H,80.3%
I162E,9.72%
D159V,16.1%
V137P,-5.12%
T86A,97.9%
H110D,7.18%
T154L,77.5%
D144Q,88.1%
A30Y,96.7%
A13P,63.2%
K58M,90%
D144I,69.1%
Q31A,74.1%
R132F,108%
D48M,49.2%
A175I,99.6%
E139W,95%
D153K,4.37%
I57C,91%
D65G,101%

# Block 4
# Target: ATF3, bZIP domain (human)
# Method: DHFR protein complementation
# Sample: yeast
# Setting: single substitutions, most at no-binding floor
# Relative to: wild-type JUN-FOS pair
# Direction: higher = stronger binding
# Parent: JUN, bZIP domain (human); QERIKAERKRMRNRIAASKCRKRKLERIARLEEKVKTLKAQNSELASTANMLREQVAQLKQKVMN; partner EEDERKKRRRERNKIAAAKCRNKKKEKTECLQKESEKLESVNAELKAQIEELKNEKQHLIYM
Change,binding fitness
T48R,-0.117 natural log
L31I,-0.417 natural log
R53V,-0.362 natural log
K39W,-0.559 natural log
E33W,-0.309 natural log
A46S,-0.115 natural log
L38D,-1.04 natural log
A46G,-0.46 natural log
A40W,-0.349 natural log
A49W,-0.288 natural log
L31D,-0.788 natural log
I28L,-0.114 natural log

# Block 5
# Target: RING finger protein unkempt homolog, zinc fingers 1-6, GST-SBP tag (UNK, Homo sapiens, UniProt Q9C0B0, residues 30-357)
# Sequence of UniProt Q9C0B0 (30-357, looked up): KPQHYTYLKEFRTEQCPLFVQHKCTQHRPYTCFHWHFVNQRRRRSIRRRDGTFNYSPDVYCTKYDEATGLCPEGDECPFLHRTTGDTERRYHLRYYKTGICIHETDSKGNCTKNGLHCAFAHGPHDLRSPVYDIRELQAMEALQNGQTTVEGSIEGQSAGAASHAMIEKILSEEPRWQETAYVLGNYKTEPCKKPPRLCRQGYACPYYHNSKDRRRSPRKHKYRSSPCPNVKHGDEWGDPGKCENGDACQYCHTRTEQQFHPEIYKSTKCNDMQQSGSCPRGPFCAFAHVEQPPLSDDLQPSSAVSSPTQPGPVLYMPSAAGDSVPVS
# Method: RNA Bind-n-Seq
# Form: RNA
# Sample: in vitro
# Tested at: not given
# Setting: RNA with constant flanks, human and mouse sites, ends assumed
# Relative to: input RNA pool
# Direction: higher = stronger binding
# Constant ends, left off below: GGGAGUUCUACAGUCCGACGAUC … CAACAGAGGAUUGAGCAUCA
Strand,bound/input enrichment
UUUCGGAACUAUAUCAUGGACUUCCAAGUUGGGAAGGAGUUUGAGGAAGAUCUGACAGGCAUAGACGACCGCAAGUGCAUGACCACUGUGAGCUGGGAUGGUGACAAACUCCAGUGUGUG,0.233 ratio
AGGCCGUGCUGCUGGCGUCACUUUCUUUGAUAUGUAGCUUUUUCUUAAAGACUUUUGAAUGUUUAAUAAUUUUGUAAAUCAUGCUCUUUACACAGAGUACCACUUAUUUAAUAAGACGGG,8.27 ratio
CCAUGGGGAUGCUCUGGGGAGUGGCUGGACACUCAGCAUUGCUUCAUUUAUGACUUUGACAAUAGAUAGGCUUCUGGGGGUUUUUGUUUCUGUUUUUUUAAUUUAAUGAUAUUAAAACUU,0.703 ratio
GUGCUUCACAUUUGUAUGUGUGUAGACUGUAACUUUUUUUCAGUUCAUAUGCAGAACGUAUUUAGCCAUUACCCACGUGACACCACCGAAUAUAUUACUGAUUUAGAAGCAAAGAUUUCA,2 ratio
UAUCUUAUAUUGCAUCUCAUCUCUACAGUGUAUACAAGAAGAGAUGUACUUCCUCUAGGAAAAUUUACAGUUAACCUGAGUGGUUGCCCGCAGAACAGUACCUUCACGGAACACCUCUAC,0.925 ratio
AGGAAGAGGAGGAGGAGGAGCAGUUGUUGUUUAGCCAUGAUUGUAAAAAUGUUAUUGUUUCAGGAAACAGCAAGACAUAGUAGAGCUGAAGGAGAGCCAGGAGCAUCACAUUCUGGAAGU,0.465 ratio
GAGACGGGAUAUGAGGAUCAAUGAUGCAGACUGCUGGGUUCGAUGAAGCUGGGCAUUUAUAACUAGAUUCAUUAAGGAAUACAAAGAAAAUAUUUAAAGGGAUCAAUAAUGGUGUCUUCU,0.692 ratio
CCAGUCAUGAAGAUGGAACCUCUGAAUAACCUCCAGGUGGCUGUGAAAAACAAUAUCGAUGUCUUCUACUUCAGCUGCCUCAUCCCACUCAAUGUGCUUUUUGUAGAAGAUGGCAAAAUG,0.176 ratio

# Block 6
# Target: CCND1, cyclin fold, Cln2 fusion (human)
# Method: yeast growth competition, sequencing
# Sample: yeast
# Setting: weak parent motif
# Relative to: not given
# Direction: higher = stronger binding
# Parent: CDC6 docking peptide (human); TLKGRRLVFDNQL
Change,normalised enrichment score
V8C,0.913
L7R,0.241
L13W,0.908
V8E,0.809
L2A,-0.191
R5L,0.34
L2C,0.697
D10P,-0.329
Q12W,0.88
G4N,0.523
L2N,-0.282
L13R,0.0795
F9V,-0.509
T1E,0.843
G4S,-0.854
G4Y,-0.121
Q12D,1.84
G4V,0.141
T1L,-0.123
L7Q,0.198
L2Y,0.485
K3W,-0.156
L2P,0.393
K3I,1.33
Q12E,0.526

# For quick reference, copied from above (block 3):
Change,relative binding score
Q31A,74.1%
D48M,49.2%
D153K,4.37%
I57C,91%
Y18N,96.9%
T86A,97.9%
K58M,90%
T17K,109%
H110D,7.18%
R132F,108%
A175I,99.6%
D144Q,88.1%
